{"data": "Measurements of several laboratories", "B1": "ATG9 1-100 (Saccharomyces cerevisiae, UniProt Q12142); sequence looked up; chain MERDEYQLPNSHGKNTFLSRIFGLQSDEVNPSLNSQEMSNFPLPDIERGSSLLHSTNDSREDVDENDLRVPESDQGTSTEEEDEVDEEQVQAYAPQISDG", "B2": "nlpI (Escherichia coli, UniProt P0AFB1); sequence looked up; chain CSNTSWRKSEVLAVPLQPTLQQEVILARMEQILASRALTDDERAQLLYERGVLYDSLGLRALARNDFSQALAIRPDMPEVFNYLGIYLTQAGNFDAAYEAFDSVLELDPTYNYAHLNRGIALYYGGRDKLAQDDLLAFYQDDPNDPFRSLWLYLAEQKLDEKQAKEVLKQHFEKSDKEQWGWNIVEFYLGNISEQTLMERLKADATDNTSLAEHLSETNFYLGKYYLSLGDLDSATALFKLAVANNVHNFVEHRYALLELSLLGQDQDDLAESDQQ", "B3": "PduK (Salmonella enterica, UniProt Q9XDN6); sequence looked up; chain MANKEHRVKQSLGLLEVCGLALAISCADIMAKSASITLLALEKTNGSGWMVIKITGDVASVQAAITTGAHFAEQWNGLVAHKVIARPGEGILLAETPSPSVIEPEPEASEIADVVSEAPAEEAPQESELVSCNLCLDPKCPRQKGEPRTLCIHSGKRGEA", "B4": "mel-28 954-1189 (Caenorhabditis elegans, UniProt Q18508); sequence looked up; chain PEVFASVNDKTERKRKSSQFGEDDESSVSSSQYVPPTAKRIQQWKSAVESVANNSSINSITSPDSHQNAEINMMIATPARYYKRHNEEENVQDGFLSPAGNRPPPVSAHNSILKTAKGGQSASRGRIRFRADVPRGADESIEDNGRKGLALNFAILEDEEEETMTIRKSRSMGKHDEEKDSEKNVVDEMEEVKDQEQENDECIESEKTFENQDDFEVLEDTSAPEAANTENGSETP", "B5": "NUP60 200-318 (Saccharomyces cerevisiae, UniProt P39705); sequence looked up; chain SMNTTLGSIGSRKYSFNYSSLPSPYKTTVYRYSAAKKIPDTYTANTSAQSIASAKSVRSGVSKSAPSKKISNTAAALVSLLDENDSKKNNAASELANPYSSYVSQIRKHKRVSPNAAPR", "B6": "SAMP2 1-69 (Pyrococcus furiosus, UniProt Q8U1Z3); sequence looked up; chain MKMIKVKVIGRNIEKEIEWREGMKVRDILRAVGFNTESAIAKVNGKVVLEDDEVKDGDFVEVIPVVSGG", "B7": "TFC6 1-672 (Saccharomyces cerevisiae, UniProt Q06339); chain MAVIPAKKRGRPRKSVVAEVPYDSLASPVSENSGSKRPRRNASKKAVANFAQLVHAGRDDVINTTQVNNVDDTDDDDFVLNDEGDGEESDNVEIEFENELESTKNEVADLNSSGSGASVRPSGRRNTVQKLRLKKNSTKNMKSSSPGSSLGQKGRPIRLLKDLSSARDKIERIYGLNKEKLLLLAKVKEGFETSVFDFPFKNIQPDSPYFVCLDPPCKKESAYNKVIGDKNRTVYHEINKTEFENMIKLRTKRLKLLIGEVDAEVSTGDKIEFPVLANGKRRGFIYNVGGLVTDIAWLNIEENTDIGKDIQYLAVAVSQYMDEPLNEHLEMFDKEKHSSCIQIFKMNTSTLHCVKVQTIVHSFGEVWDLKWHEGCHAPHLVGCLSFVSQEGTINFLEIIDNATDVHVFKMCEKPSLTLSLADSLITTFDFLSPTTVVCGFKNGFVAEFDLTDPEVPSFYDQVHDSYILSVSTAYSDFEDTVVSTVAVDGYFYIFNPKDIATTKTTVSRFRGSNLVPVVYCPQIYSYIYSDGASSLRAVPSRAAFAVHPLVSRETTITAIGVSRLHPMVLAGSADGSLIITNAARRLLHGIKNSSATQKSLRLWKWDYSIKDDKYRIDSSYEVYPLTVNDVSKAKIDAHGINITCTKWNETSAGGKCYAFSNSAGLLTLEYLS", "B8": "peroxiredoxin-4 (human); sequence looked up; chain WETEERPRTREEECHFYAGGQVYPGEASRVSVADHSLHLSKAKISKPAPYWEGTAVIDGEFKELKLTDYRGKYLVFFFYPLDFTFVCPTEIIAFGDRLEEFRSINTEVVACSVDSQFTHLAWINTPRRQGGLGPIRIPLLSDLTHQISKDYGVYLEDSGHTLRGLFIIDDKGILRQITLNDLPVGRSVDETLRLVQAFQYTDKHGEVCPAGWKPGSETIIPDPAGKLKYFDKLN", "B9": "GP1BA 17-306 D235Y/M239V (Homo sapiens, UniProt P07359); sequence looked up; chain HPICEVSKVASHLEVNCDKRNLTALPPDLPKDTTILHLSENLLYTFSLATLMPYTRLTQLNLDRCELTKLQVDGTLPVLGTLDLSHNQLQSLPLLGQTLPALTVLDVSFNRLTSLPLGALRGLGELQELYLKGNELKTLPPGLLTPTPKLEKLSLANNNLTELPAGLLNGLENLDTLLLQENSLYTIPKGFFGSHLLPFAFLHGNPWLCNCEILYFRRWLQDNAENVYVWKQGVYVKAVTSNVASVQCDNSDKFPVYKYPGKGCPTLGDEGDTDLYDYYPEEDTEGDKVR", "B10": "EPOP 285-379 (Homo sapiens, UniProt A6NHQ4); sequence looked up; chain AKKRRLPAPPPRTAQPRRPAPTLPTTSTFSLLNCFPCPPALVVGEDGDLKPASSLRLQGDSKPPPAHPLWRWQMGGPAVPEPPGLKFWGINMDES", "B11": "NOTCH4 276-511 (Homo sapiens, UniProt Q99466); sequence looked up; chain NPDNCVSHQCQNGGTCQDGLDTYTCLCPETWTGWDCSEDVDECETQGPPHCRNGGTCQNSAGSFHCVCVSGWGGTSCEENLDDCIAATCAPGSTCIDRVGSFSCLCPPGRTGLLCHLEDMCLSQPCHGDAQCSTNPLTGSTLCLCQPGYSGPTCHQDLDECLMAQQGPSPCEHGGSCLNTPGSFNCLCPPGYTGSRCEADHNECLSQPCHPGSTCLDLLATFHCLCPPGLEGQLCE", "B12": "PF-04518600 IgG; V domains shown; VH EVQLVESGGGLVQPGGSLRLSCAASGFTFSSYSMNWVRQAPGKGLEWVSYISSSSSTIDYADSVKGRFTISRDNAKNSLYLQMNSLRDEDTAVYYCARESGWYLFDYWGQGTLVTVSS; VL DIQMTQSPSSLSASVGDRVTITCRASQGISSWLAWYQQKPEKAPKSLIYAASSLQSGVPSRFSGSGSGTDFTLTISSLQPEDFATYYCQQYNSYPPTFGGGTKVEIK", "B13": "6-pyruvoyl tetrahydropterin synthase (human); sequence looked up; chain MSTEGGGRRCQAQVSRRISFSASHRLYSKFLSDEENLKLFGKCNNPNGHGHNYKVVVTVHGEIDPATGMVMNLADLKKYMEEAIMQPLDHKNLDMDVPYFADVVSTTENVAVYIWDNLQKVLPVGVLYKVKVYETDNNIVVYKGE", "B14": "TOMM20 cytosolic domain, 62-127 Q105E (Homo sapiens, UniProt Q15388); chain CDAEAVQKFFLEEIQLGEELLAQGEYEKGVDHLTNAIAVCGQPQELLQVLQQTLPPPVFQMLLTKLP", "chain of UniProt P43489 (whole entry, looked up)": "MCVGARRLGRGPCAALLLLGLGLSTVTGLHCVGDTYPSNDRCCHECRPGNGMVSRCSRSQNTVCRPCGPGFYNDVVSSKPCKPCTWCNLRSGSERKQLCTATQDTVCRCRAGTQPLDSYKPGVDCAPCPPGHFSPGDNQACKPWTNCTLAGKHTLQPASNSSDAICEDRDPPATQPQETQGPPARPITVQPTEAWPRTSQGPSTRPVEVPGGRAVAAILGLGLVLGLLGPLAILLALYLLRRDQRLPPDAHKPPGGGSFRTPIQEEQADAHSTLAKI", "chain of UniProt Q9XDM8 (whole entry, looked up)": "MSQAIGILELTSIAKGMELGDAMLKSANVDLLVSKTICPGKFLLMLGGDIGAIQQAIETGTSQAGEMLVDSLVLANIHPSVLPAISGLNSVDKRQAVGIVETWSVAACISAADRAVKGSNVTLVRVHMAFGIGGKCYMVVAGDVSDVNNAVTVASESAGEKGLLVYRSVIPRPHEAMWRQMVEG", "chain of UniProt Q9AXT8 (whole entry, looked up)": "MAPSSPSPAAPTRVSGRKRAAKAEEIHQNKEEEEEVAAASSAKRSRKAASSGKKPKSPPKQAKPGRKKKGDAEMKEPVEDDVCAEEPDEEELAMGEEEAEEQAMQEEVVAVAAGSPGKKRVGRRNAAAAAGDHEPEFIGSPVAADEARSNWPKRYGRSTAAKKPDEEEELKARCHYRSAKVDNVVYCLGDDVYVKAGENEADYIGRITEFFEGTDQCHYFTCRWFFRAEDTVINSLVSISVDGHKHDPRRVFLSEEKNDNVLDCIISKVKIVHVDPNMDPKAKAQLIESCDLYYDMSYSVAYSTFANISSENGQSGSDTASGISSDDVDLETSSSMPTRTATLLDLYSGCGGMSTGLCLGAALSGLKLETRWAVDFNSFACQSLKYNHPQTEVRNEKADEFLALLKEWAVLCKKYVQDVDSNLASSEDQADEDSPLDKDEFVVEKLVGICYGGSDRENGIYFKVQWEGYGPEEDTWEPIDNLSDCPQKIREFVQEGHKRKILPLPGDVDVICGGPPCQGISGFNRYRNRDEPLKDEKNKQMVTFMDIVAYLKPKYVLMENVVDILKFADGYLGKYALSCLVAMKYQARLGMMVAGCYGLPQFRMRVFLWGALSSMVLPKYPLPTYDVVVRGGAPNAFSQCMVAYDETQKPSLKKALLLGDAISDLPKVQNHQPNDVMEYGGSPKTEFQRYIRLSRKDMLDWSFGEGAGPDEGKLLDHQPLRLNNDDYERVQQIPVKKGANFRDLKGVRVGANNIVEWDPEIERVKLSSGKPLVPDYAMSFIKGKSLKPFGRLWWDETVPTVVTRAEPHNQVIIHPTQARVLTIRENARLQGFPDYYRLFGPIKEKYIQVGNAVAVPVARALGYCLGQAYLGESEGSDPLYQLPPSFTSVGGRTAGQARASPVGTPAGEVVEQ", "chain of UniProt Q8U1Y4 (whole entry, unmodified, looked up)": "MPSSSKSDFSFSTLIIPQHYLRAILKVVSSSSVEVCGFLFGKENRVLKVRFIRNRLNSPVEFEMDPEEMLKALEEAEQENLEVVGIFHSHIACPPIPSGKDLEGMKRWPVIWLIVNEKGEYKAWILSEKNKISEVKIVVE", "chain of UniProt Q00610 (whole entry, unmodified, looked up)": "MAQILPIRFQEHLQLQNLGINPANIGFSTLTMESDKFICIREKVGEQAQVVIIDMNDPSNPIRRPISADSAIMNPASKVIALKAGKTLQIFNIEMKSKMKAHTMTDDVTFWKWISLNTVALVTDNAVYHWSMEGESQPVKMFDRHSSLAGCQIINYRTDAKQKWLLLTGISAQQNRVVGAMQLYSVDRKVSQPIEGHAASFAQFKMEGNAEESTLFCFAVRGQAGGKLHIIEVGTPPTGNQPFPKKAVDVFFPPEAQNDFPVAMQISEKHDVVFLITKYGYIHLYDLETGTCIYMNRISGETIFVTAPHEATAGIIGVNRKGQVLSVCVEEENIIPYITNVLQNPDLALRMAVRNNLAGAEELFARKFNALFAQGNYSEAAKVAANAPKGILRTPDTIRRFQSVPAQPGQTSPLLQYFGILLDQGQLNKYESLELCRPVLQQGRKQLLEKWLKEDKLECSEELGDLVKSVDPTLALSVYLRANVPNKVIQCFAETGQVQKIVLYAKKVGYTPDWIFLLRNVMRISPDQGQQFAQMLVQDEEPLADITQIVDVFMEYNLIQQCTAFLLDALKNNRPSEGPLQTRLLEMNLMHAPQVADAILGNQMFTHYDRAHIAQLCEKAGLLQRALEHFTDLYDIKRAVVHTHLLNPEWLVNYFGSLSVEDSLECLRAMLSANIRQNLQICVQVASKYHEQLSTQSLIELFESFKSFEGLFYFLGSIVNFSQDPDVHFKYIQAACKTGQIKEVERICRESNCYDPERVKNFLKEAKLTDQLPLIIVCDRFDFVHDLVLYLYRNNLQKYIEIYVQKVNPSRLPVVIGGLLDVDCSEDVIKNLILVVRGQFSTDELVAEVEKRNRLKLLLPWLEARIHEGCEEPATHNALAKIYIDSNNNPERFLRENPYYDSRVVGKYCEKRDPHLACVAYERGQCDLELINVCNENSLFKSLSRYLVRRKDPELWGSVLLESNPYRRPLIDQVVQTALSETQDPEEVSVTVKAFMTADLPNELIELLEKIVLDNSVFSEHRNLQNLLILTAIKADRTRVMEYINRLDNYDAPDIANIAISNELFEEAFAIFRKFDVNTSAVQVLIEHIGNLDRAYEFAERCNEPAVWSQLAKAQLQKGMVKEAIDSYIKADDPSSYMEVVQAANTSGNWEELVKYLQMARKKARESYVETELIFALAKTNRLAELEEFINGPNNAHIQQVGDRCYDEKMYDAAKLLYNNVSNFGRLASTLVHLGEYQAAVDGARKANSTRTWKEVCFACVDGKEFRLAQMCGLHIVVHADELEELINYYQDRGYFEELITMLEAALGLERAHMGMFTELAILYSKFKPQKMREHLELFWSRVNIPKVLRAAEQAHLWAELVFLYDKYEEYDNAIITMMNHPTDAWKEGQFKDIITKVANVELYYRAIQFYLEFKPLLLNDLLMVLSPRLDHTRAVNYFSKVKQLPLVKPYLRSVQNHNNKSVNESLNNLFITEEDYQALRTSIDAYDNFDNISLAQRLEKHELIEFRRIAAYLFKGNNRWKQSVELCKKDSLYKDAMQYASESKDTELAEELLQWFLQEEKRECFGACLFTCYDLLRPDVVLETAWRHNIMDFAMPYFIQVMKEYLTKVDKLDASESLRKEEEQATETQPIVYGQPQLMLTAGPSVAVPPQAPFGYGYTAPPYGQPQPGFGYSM", "chain of UniProt Q08345 (whole entry, unmodified, looked up)": "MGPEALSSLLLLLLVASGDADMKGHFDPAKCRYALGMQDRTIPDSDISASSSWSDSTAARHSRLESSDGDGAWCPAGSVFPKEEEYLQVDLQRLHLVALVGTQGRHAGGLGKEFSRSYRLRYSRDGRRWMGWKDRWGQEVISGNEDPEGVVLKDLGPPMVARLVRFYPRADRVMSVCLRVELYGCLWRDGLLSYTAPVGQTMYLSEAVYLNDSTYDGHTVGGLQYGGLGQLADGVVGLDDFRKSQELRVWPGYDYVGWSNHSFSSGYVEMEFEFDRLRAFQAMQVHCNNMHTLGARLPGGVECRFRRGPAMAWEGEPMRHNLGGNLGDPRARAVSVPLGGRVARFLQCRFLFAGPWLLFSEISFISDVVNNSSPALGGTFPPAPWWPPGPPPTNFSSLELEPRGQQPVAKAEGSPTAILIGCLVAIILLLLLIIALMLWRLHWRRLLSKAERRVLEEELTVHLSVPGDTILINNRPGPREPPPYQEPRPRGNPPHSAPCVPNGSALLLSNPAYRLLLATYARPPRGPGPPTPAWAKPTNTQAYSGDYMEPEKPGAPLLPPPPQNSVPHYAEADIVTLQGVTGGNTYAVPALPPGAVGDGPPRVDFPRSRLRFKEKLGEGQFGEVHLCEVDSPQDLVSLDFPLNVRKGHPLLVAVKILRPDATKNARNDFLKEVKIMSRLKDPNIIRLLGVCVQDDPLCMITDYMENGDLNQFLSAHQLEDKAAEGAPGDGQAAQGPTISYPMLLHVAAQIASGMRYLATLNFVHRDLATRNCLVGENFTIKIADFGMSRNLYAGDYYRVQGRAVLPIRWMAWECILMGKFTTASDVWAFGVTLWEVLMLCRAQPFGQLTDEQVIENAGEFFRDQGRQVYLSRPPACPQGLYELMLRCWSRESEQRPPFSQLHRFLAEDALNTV", "chain of UniProt P84091 (whole entry, looked up)": "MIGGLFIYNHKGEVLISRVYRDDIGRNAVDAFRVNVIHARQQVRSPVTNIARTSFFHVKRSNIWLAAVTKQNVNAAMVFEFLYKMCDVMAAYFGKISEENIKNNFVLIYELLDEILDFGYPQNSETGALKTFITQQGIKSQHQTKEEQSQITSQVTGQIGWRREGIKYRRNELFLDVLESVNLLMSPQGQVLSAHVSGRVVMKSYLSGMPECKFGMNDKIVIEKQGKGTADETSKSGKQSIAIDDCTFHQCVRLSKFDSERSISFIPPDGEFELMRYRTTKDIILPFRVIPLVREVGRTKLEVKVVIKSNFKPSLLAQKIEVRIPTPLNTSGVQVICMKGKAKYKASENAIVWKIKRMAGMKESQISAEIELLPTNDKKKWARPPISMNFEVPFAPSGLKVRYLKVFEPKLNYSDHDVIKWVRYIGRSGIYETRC", "chain of UniProt P48727 (whole entry, looked up)": "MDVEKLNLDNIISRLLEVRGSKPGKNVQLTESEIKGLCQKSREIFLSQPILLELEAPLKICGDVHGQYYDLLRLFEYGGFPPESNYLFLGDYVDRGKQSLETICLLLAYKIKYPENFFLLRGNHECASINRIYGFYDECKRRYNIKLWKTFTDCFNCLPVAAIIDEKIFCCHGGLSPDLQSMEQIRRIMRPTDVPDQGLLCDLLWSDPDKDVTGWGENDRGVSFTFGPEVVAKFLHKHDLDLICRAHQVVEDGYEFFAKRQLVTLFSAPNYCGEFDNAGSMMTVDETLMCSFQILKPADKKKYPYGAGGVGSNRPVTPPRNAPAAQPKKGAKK"}
{"Substance": "DSNTRILIGSLVAIIFILLAIIVIILWRQFWQK (DDR2 395-427 C404S (Homo sapiens, UniProt Q16832); sequence looked up)", "tested on": "DDR1 413-445 C422S/M437V (Homo sapiens, UniProt Q08345)", "test": "NMR titration", "measurement": "binding", "value": "binds"}
{"Substance": "GVGGSWGVFSSGESPAIVPDK (TET3 peptide 1451-1471 (Homo sapiens, UniProt O43151); sequence looked up)", "tested on": "KMT2C 1083-1143 (Homo sapiens, UniProt Q8NEZ4)", "test": "NMR titration", "test system": "peptide", "measurement": "binding", "value": "binds"}
{"Substance": "colistin", "tested on": "Acinetobacter baumannii", "test": "broth microdilution", "test system": "clinical isolate RKI-No_231/15", "measurement": "MIC", "value": "≤ 0.5 µg/mL"}
{"Substance": "B1 (ATG9 1-100)", "tested on": "ATG23 A34E (UniProt Q06671)", "test": "pull-down", "conditions": "5 µM, 15 min, pH 8, 4 °C, NaCl 150 mM", "measurement": "binding", "value": "binds"}
{"Substance": "ARTKQTARKSTGGKAY (histone H3 residues 1-15; K9me3)", "tested on": "ATRX 1-321 Y203A (Homo sapiens, UniProt P46100)", "test": "ITC", "test system": "peptide", "conditions": "25 °C", "measurement": "binding", "value": "binds"}
{"Substance": "B2 (nlpI)", "tested on": "prc K477A (Escherichia coli, UniProt P23865)", "test": "pull-down", "measurement": "binding", "value": "binds"}
{"Substance": "TKQTARKSTGGKA (H3 peptide residues 3-x 4-16 (UniProt P68431); K9me3)", "tested on": "CBX7 8-62 L49D/D50C (Homo sapiens, UniProt O95931)", "test": "array", "test system": "peptide", "measurement": "binding", "value": "binds"}
{"Substance": "B3 (PduK)", "tested on": "PduT (Salmonella enterica Typhimurium LT2, UniProt Q9XDM8)", "test": "cross-linking", "measurement": "binding", "value": "binds"}
{"Substance": "B4 (mel-28 954-1189)", "tested on": "gsp-2 (Caenorhabditis elegans, UniProt P48727)", "test": "pull-down", "measurement": "binding", "value": "binds"}
{"Substance": "B5 (NUP60 200-318)", "tested on": "NUP133/NUP84/SEC13/NUP145/SEH1/NUP85/NUP120 (Saccharomyces cerevisiae)", "test": "pull-down", "measurement": "binding", "value": "binds"}
{"Substance": "B6 (SAMP2 1-69)", "tested on": "PF1070 1-140 del2-11 (Pyrococcus furiosus, UniProt Q8U1Y4)", "test": "crystal structure", "conditions": "293 K", "measurement": "binding", "value": "binds"}
{"Substance": "ARTKQTARCSTGGKAPRKQLATKAARKSAPAT (H3C1 2-33 K9C (UniProt P68431); alkylated Cys9, dimethyl-lysine analog; sequence looked up)", "tested on": "ZMET2 130-912, 5-fluorocytosine DNA crosslink (Zea mays, UniProt Q9AXT8)", "test": "crystal structure", "test system": "peptide", "measurement": "binding", "value": "binds"}
{"Substance": "ASEFFVDGLDSDERTLEHFKRWLQPDKVAI (CCDC32 121-150 (Mus musculus, UniProt Q8BS39))", "tested on": "Ap2m1 122-435 (Mus musculus, UniProt P84091)", "test": "pull-down", "measurement": "binding", "value": "binds"}
{"Substance": "B7 (TFC6 1-672)", "tested on": "TFC4 1-1025 (Saccharomyces cerevisiae, UniProt P33339)", "test": "cryo-EM", "measurement": "binding", "value": "binds"}
{"Substance": "B8 (peroxiredoxin-4)", "tested on": "CYB5R4 knockout human cells", "test": "PP6 interaction, 3xFLAG-PP6C IP-MS", "conditions": "concentration not given", "scale": "reference: CYB5R4 KO over parental", "measurement": "log2 fold change", "value": 0.48}
{"Substance": "B9 (GP1BA 17-306 D235Y/M239V)", "tested on": "VWF mature, recombinant (Homo sapiens, UniProt P04275)", "test": "ELISA", "measurement": "binding", "value": "binds"}
{"Substance": "TVAGQFEDADVDH (CLNS1A residues 225-237; N-terminal acetyl)", "tested on": "PRMT5/WDR77 fragment (Homo sapiens)", "test": "crystal structure", "test system": "peptide", "measurement": "binding", "value": "binds"}
{"Substance": "B10 (EPOP 285-379)", "tested on": "SUZ12/RBBP4 SUZ12 76-545 (Homo sapiens)", "test": "pull-down", "measurement": "binding", "value": "binds"}
{"Substance": "B11 (NOTCH4 276-511)", "tested on": "DLL4 27-400 N257P/T271L/F280Y/S301R/Q305P (Homo sapiens, UniProt Q9NR61)", "test": "SPR", "measurement": "binding", "value": "binds"}
{"Substance": "KESALRKQDLWLLFDPLFR (TACC3 to 568 550-568 S558D/Y560W/K562L/L567F (Homo sapiens, UniProt Q9Y6A5); sequence looked up)", "tested on": "CLTC 358-574 (Homo sapiens, UniProt Q00610)", "test": "peptide array", "test system": "peptide", "measurement": "binding", "value": "binds"}
{"Substance": "B12 (PF-04518600 IgG)", "tested on": "TNFRSF4 (Homo sapiens, UniProt P43489)", "test": "flow cytometry", "test system": "antibody, HEK293T", "conditions": "in cells", "measurement": "binding", "value": "binds"}
{"Substance": "B13", "tested on": "PP6C (human)", "test": "co-immunoprecipitation, IP-MS", "test system": "CYB5R4 knockout cells", "conditions": "concentration not given", "scale": "reference: CYB5R4 knockout over parental", "measurement": "log2 fold change", "value": -1.93}
{"Substance": "B14", "tested on": "Fem1b (Mus musculus, UniProt Q9Z2G0)", "test": "fluorescence polarisation", "measurement": "binding", "value": "binds"}
{"note": "Repeated from above:"}
{"Substance": "ARTKQTARCSTGGKAPRKQLATKAARKSAPAT (H3C1 2-33 K9C (UniProt P68431); alkylated Cys9, dimethyl-lysine analog; sequence looked up)", "tested on": "ZMET2 130-912, 5-fluorocytosine DNA crosslink (Zea mays, UniProt Q9AXT8)", "test": "crystal structure", "test system": "peptide", "measurement": "binding", "value": "binds"}
{"Substance": "ASEFFVDGLDSDERTLEHFKRWLQPDKVAI (CCDC32 121-150 (Mus musculus, UniProt Q8BS39))", "tested on": "Ap2m1 122-435 (Mus musculus, UniProt P84091)", "test": "pull-down", "measurement": "binding", "value": "binds"}
{"Substance": "B7 (TFC6 1-672)", "tested on": "TFC4 1-1025 (Saccharomyces cerevisiae, UniProt P33339)", "test": "cryo-EM", "measurement": "binding", "value": "binds"}
